Measured values from different studies.
Lines come from different studies, so protocols differ. Several values in a cell are separate wells, animals, samples, runs or records. ± marks the error that the study gave.
UCHL1: Ubiquitin carboxyl-terminal hydrolase isozyme L1 (UCHL1, Homo sapiens, UniProt P09936)
UniProt P09936, sequence (whole entry, looked up): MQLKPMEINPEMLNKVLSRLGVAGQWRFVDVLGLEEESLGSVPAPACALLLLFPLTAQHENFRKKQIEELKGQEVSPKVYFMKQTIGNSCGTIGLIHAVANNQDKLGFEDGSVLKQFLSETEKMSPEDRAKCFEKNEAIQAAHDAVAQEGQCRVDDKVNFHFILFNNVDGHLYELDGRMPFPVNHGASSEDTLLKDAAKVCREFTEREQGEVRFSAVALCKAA
SIK1: Serine/threonine-protein kinase SIK1 (SIK1, Homo sapiens, UniProt P57059)
UniProt P57059, sequence (whole entry, looked up): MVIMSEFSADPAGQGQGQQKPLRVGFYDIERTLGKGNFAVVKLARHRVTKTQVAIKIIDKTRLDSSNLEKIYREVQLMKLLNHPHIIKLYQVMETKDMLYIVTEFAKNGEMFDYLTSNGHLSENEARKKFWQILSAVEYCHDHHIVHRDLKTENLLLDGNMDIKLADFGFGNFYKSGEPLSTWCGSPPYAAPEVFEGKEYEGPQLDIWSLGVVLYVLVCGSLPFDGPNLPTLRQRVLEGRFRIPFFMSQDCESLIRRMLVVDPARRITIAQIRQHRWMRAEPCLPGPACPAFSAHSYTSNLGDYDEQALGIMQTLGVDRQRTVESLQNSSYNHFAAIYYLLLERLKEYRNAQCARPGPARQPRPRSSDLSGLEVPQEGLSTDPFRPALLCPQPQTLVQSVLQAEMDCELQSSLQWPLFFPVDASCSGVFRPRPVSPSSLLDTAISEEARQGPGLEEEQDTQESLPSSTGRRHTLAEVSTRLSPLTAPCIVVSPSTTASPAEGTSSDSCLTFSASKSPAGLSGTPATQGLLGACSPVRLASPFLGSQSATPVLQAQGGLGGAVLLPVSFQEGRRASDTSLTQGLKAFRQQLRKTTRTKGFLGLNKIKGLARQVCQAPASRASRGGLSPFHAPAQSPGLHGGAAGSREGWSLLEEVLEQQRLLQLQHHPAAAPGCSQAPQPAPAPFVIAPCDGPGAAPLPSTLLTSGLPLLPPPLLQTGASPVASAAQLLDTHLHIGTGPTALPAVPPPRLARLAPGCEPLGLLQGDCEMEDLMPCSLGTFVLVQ
HLA class I histocompatibility antigen, A alpha chain allele A*24:02: HLA class I histocompatibility antigen, A alpha chain, allele A*24:02 (Homo sapiens, UniProt P04439)
Nicotinic acetylcholine receptor alpha1/beta1/epsilon/delta: Nicotinic acetylcholine receptor alpha1/beta1/epsilon/delta (Mus musculus, UniProt P02716+P04756+P09690+P20782)
UniProt P42866, sequence (whole entry, looked up): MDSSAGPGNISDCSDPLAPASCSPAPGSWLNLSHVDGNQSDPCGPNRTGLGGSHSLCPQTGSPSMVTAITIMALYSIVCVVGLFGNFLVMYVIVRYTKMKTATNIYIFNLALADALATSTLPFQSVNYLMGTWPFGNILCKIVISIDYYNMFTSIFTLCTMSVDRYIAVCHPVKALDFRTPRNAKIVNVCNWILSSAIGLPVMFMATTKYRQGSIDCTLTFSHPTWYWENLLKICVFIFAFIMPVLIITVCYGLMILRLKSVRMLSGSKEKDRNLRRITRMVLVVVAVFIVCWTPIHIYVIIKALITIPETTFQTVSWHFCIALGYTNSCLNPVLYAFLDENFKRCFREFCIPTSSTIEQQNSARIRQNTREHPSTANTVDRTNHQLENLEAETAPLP
UniProt Q9EP73, sequence (whole entry, looked up): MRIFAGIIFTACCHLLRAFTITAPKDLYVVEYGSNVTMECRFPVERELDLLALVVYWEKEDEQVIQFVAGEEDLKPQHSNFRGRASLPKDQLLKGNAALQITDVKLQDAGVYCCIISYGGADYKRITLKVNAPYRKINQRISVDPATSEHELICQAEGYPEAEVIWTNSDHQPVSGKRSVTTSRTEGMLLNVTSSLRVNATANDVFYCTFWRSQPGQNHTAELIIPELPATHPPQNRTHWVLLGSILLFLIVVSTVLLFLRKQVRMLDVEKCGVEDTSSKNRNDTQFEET
UniProt P20782, sequence (whole entry, looked up): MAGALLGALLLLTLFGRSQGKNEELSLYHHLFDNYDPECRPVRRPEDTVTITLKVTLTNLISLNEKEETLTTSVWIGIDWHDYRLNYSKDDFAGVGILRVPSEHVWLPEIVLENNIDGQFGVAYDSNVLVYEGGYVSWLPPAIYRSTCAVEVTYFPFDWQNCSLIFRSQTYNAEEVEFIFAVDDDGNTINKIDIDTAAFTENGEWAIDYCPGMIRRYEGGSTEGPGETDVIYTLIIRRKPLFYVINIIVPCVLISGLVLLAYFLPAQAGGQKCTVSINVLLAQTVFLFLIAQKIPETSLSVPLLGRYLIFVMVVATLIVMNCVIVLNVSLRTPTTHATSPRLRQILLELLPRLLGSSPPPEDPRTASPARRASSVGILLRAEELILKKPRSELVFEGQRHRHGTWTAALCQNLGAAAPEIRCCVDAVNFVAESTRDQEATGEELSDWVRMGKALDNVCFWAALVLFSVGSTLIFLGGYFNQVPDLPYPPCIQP
UniProt P04756, sequence (whole entry, looked up): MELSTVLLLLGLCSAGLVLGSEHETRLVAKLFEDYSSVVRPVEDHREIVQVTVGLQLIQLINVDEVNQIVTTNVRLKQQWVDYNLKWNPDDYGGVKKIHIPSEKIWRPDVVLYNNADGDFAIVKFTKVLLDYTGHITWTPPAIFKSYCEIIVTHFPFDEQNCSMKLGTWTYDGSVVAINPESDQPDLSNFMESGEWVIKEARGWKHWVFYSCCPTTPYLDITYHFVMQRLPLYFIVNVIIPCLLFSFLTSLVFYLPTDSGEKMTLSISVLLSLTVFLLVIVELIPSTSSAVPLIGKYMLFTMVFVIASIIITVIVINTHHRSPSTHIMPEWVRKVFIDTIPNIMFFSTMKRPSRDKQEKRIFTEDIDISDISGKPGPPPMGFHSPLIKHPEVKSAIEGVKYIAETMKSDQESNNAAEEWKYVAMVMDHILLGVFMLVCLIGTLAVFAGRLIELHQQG
UniProt P09690, sequence (whole entry, looked up): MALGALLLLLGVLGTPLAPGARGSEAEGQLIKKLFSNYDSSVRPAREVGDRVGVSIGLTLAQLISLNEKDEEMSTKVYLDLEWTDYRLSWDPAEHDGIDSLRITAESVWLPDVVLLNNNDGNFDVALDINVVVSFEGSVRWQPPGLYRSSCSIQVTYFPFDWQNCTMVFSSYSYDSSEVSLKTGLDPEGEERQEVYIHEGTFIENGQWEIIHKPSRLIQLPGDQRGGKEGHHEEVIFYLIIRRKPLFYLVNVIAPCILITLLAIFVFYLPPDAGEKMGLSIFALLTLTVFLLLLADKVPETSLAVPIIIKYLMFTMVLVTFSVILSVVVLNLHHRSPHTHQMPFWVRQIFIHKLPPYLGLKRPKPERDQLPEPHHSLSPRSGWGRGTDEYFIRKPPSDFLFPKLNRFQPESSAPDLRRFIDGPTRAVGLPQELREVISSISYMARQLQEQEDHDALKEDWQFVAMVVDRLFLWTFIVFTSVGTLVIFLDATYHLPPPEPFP
UniProt P02716, sequence (whole entry, looked up): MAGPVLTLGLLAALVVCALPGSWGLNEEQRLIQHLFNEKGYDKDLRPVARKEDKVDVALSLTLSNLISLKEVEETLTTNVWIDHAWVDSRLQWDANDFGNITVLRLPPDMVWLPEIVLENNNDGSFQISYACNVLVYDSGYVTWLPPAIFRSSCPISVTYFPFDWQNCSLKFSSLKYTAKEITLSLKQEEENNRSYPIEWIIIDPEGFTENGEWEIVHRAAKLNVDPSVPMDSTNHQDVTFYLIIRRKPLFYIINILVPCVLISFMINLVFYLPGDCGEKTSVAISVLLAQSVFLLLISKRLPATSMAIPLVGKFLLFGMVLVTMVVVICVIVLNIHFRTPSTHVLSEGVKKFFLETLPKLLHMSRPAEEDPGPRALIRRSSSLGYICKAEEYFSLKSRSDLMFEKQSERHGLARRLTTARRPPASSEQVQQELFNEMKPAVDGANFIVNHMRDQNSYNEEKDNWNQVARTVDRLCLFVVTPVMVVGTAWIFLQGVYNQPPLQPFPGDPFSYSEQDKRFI
UniProt Q99685, sequence (whole entry, looked up): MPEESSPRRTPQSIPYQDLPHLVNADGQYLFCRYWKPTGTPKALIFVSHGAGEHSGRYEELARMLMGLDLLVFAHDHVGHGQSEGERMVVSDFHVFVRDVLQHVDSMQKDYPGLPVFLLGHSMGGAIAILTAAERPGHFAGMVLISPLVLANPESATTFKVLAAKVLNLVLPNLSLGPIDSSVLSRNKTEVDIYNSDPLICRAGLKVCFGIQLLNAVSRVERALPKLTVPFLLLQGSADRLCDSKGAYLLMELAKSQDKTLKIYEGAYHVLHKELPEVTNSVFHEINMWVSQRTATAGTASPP
UniProt P27361, sequence (whole entry, looked up): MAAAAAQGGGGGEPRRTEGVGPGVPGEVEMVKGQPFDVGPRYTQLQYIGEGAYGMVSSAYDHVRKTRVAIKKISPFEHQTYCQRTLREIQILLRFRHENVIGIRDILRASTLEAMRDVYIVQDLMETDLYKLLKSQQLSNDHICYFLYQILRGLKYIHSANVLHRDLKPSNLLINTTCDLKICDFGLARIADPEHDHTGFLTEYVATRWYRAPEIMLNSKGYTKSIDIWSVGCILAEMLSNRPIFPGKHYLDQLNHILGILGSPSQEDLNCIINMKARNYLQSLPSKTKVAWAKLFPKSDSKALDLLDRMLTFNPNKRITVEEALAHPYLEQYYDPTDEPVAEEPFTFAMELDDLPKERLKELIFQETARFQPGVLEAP

Structure (SMILES) | target or system | assay | test system | conditions | scale | measurement | result
Cn1ccnc1C(=O)CCl | UCHL1 | covalent, intact protein LC-MS | – | 12.5 µM | – | labelling | 2.47%
NCCc1c[nH]c2ccc(O)cc12 | N-alpha-acetyltransferase 80 (NAA80, Homo sapiens, UniProt Q93015) | substrate, DTNB | – | 2 mM, 30 min, 37 °C, with: acetyl-CoA 500 µM | – | product formation | 0 µM
COc1cc(N)c(Cl)cc1C(=O)NC1CN2CCC1CC2 (centres unmarked) | Probable G-protein coupled receptor 173 (GPR173, Homo sapiens, UniProt Q9NS66) | β-arrestin recruitment, TANGO luminescence, measured: GPR173 | – | concentration not given | baseline: basal luminescence | log2 fold change | 0.256
COc1c(CCC[P+](c2ccccc2)(c2ccccc2)c2ccccc2)cc2c(c1OC)OCO2.[I-] | DU-145 | SRB | – | – | – | GI50 | -5.45 log M
[2H]c1c([2H])c([C@]2([2H])CCCN2C(=O)C(C)(C)Oc2ccc3cn[nH]c3c2)c([2H])c([2H])c1C([2H])([2H])[2H] | SIK1 | KINOMEscan | – | 1 µM | baseline: DMSO control | remaining binding | 94%
COc1cc(Nc2ncc(F)c(Nc3ccc4c(n3)NC(=O)C(C)(C)O4)n2)cc(OC)c1OC | TNK1 (Homo sapiens, UniProt Q13470) | KINOMEscan | – | 10 µM | – | inhibition | 100%
Clc1ccc(COc2ccccc2CNCc2ccncc2)cc1 | aacA-aphD, AAC(6')-Ie domain (Staphylococcus aureus, UniProt P0A0C1) | neomycin acetylation, inhibitor | – | with: neomycin | – | highest concentration without inhibition | > 200 µM
COC[C@H]1OC(=O)c2coc3c2[C@@]1(C)C1=C(C3=O)[C@@H]2CCC(=O)[C@@]2(C)C[C@H]1OC(C)=O | TRPM8 (Homo sapiens, UniProt Q7Z2W7) | antagonist | HEK293 | 5 µM | baseline: control | remaining activity | 93.3 ± 0.99%
C[C@H]1CN(c2n[nH]c3nc(N[C@H]4CC[C@H](NS(=O)(=O)CCC(F)(F)F)CC4)ncc23)CCO1 | Protein FAM222B (Homo sapiens, UniProt Q8WU58) | Kinobeads competition | HEK293/K562/placenta extract | 20 µM | baseline: vehicle | remaining binding | 18%
CC[C@H](C)[C@H](NC(=O)[C@@H]1CCCN1C(=O)[C@H](CC(N)=O)NC(=O)[C@H](CC(C)C)NC(=O)[C@@H](N)CCCNC(=N)N)C(=O)NCC(=O)N[C@@H](Cc1ccc(O)cc1)C(=O)N[C@@H](CO)C(=O)N[C@@H](Cc1ccc(O)cc1)C(=O)O | HLA class I histocompatibility antigen, A alpha chain allele A*24:02 | binding | – | – | – | IC50 | 55.4 µM
CC[C@@H](C)[C@@H](NC(=O)[C@@H](Cc1ccc(O)cc1)NC(=O)[C@H]1CCCN1C(=O)[C@@H](CCCNC(=N)N)NC(=O)[C@H](N)Cc1c[nH]cn1)C(=O)N[C@H](C)C(=O)N[C@H](Cc1c[nH]cn1)C(=O)N[C@H](CCCNC(=N)N)C(=O)N[C@H](CCCCNC(=O)c1cccc(S(=O)(=O)F)c1)C(=O)N[C@H](Cc1ccc(O)cc1)C(=O)N[C@H](CO)C(=O)N[C@H](Cc1ccccc1)C(N)=O | Programmed cell death 1 ligand 1, with PD-1 (Cd274, Mus musculus, UniProt Q9EP73) | PD-1-Fc binding | HEK293T-mPD-L1 | concentration not given, 48 h | – | PD-L1 blocking rate | 19.2% and 20.5% and 19.8%
CCCCC/C=C\C/C=C\C/C=C\C/C=C\CCCC(=O)NCCO | Trpv1 (Mus musculus, UniProt Q704Y3, T551V) | patch clamp | – | – | – | Hill coefficient | 2.74 ± 0.75
Nc1nc(COC(=O)[C@@H]2CS[C@H]3CS[C@H](CS)N32)cs1 | sfhI (Serratia fonticola, UniProt Q9RMI1) | activity class | – | concentration not given | – | activity | inactive
N[C@@H](CCC(=O)O)C(=O)O | Glutamate-gated chloride channel alpha (glc-1, Caenorhabditis elegans, UniProt G5EBR3, del364-370/del374-421/R372G) | ion current, agonist, two-electrode voltage clamp | Xenopus oocytes | – | – | Hill coefficient | 0.9
Cc1cccc(CC(=O)CCl)c1 | UCHL1 | covalent, intact protein LC-MS | – | 12.5 µM | – | labelling | 8.29%
Nc1ncc(-c2nc(N3CCOCC3)nc(N3CCOCC3)n2)c(C(F)F)n1 | ERBB3 (Homo sapiens, UniProt P21860) | KINOMEscan | – | 10 µM | – | remaining binding | 69%
O=C(c1ccc(Cl)cc1)N1CCN2C(=O)N(OC(=O)N3CCOc4ccccc43)C(=O)C2C1 (centres unmarked) | PREP (Homo sapiens, UniProt P48147) | enzyme activity, inhibitor, MS-based ABPP | SW-620 in situ | 10 µM, 2 h, 37 °C | baseline: compound over DMSO, lower = stronger inhibition | median ratio | 1.12
CC(=O)NC[C@H]1[C@H](O)[C@H](O)[C@@H]2[C@H](O)C[C@@H](CO)N21 | human placental β-N-acetylglucosaminidase | – | – | 0.02575 µM, run 2, with: p-nitrophenyl GlcNAc | – | inhibition | 81.8%
CSCC[C@H](NC(=O)[C@@H](N)CCCCN)C(=O)N[C@@H](Cc1c[nH]c2ccccc12)C(=O)NCC(=O)N[C@@H](CCCCN)C(=O)N1CCC[C@H]1C(=O)N[C@@H](CCSC)C(=O)N[C@H](C(=O)N[C@@H](Cc1ccccc1)C(=O)O)[C@@H](C)O | HLA class I histocompatibility antigen, A alpha chain allele A*24:02 | binding | – | – | – | IC50 | 1.73 µM
CC[C@H](CO)Nc1nc(NCc2ccc(-c3ccccn3)cc2)c2ncn(C(C)C)c2n1 | CSNK1D (Homo sapiens, UniProt P48730) | KINOMEscan competition binding | – | 10 µM, primary screen | direction not given | binding score | 3.2
COC(=O)[C@@]1(O)C[C@H]2O[C@]1(C)n1c3ccccc3c3c4c(c5c6ccccc6n2c5c31)C(=O)NC4 | MAPK3 (Homo sapiens, UniProt P27361) | ADP-Glo | – | 1.43 µM, with: substrate MBP | – | remaining activity | 112%
CC[N+]1(C)CCN(c2cccc(Cl)c2)CC1.[I-] | Nicotinic acetylcholine receptor alpha1/beta1/epsilon/delta | ion current, inhibitor, two-electrode voltage clamp | Xenopus oocytes | 30 µM, after co-application, unit not given, with: ACh 30 µM | baseline: ACh alone | ACh response | 0.605 ± 0.127

Structure (SMILES) | target or system | assay | test system | conditions | scale | measurement | result
C=C(C)[C@H]1Cc2c(ccc3c2O[C@@H]2COc4cc(OC)c(OC)cc4[C@@H]2C3=O)O1 | MGLL (Homo sapiens, UniProt Q99685) | gel-based ABPP | U-87 MG | concentration not given, 2 h, with: 10 nM LEI-463-Cy5 | – | probe labelling | decreased
COc1ccc(N2C(=O)N(c3c(C)cccc3Cl)Cc3cnc(Nc4ccc(C5CCN(C)CC5)cc4OC)nc32)nc1 | EPHA3 (Homo sapiens, UniProt P29320) | kinase activity | – | 0.5 µM | – | inhibition | 84%
C[C@@H](O)[C@@H](CO)NC(=O)[C@@H](CCCNC(=N)N)NC(=O)[C@@H]1CCCN1C(=O)[C@@H]1CSSC[C@H](NC(=O)[C@H](Cc2ccccc2)NC(=O)CN2CCN(CC(=O)O)CCN(CC(=O)O)CCN(CC(=O)O)CC2)C(=O)N[C@@H](Cc2ccc(O)cc2)C(=O)N[C@@H](Cc2ccccc2)C(=O)N[C@@H](CCC(N)=O)C(=O)N[C@@H](CC(N)=O)C(=O)N1 [gallium-68 labelled] | – | – | Wistar rat, thyroid | intravenous, 8 MBq, 30 min, group mean | – | tissue uptake | 0.27 %ID/g
CN(C(=O)n1cnc(-c2ccc[n+]([O-])c2)c1)C1CCCCC1 | Carboxylesterase 1C (Ces1c, Rattus norvegicus, UniProt P10959) | enzyme activity, ABPP | rat, brain | oral, 100 mg/kg/day, 1 days | baseline: vehicle | fold change | -33.7
O=C(O)CCC(=O)C(=O)O | HIF1AN (Homo sapiens, UniProt Q9NWT6, E105A) | cosubstrate | – | tunnel mutant E105A | – | KI over Km | ~20 fold
CCCC(=O)O | Albumin (ALB, Homo sapiens, UniProt P02768) | differential scanning calorimetry | – | concentration not given, second transition, HSA 15 µM | baseline: HSA alone | melting temperature change | -2.8 °C
COc1cc(C(=O)N2CC[C@@H](O)[C@@H](N)C2)cc2nc(-c3cc4ccccc4n3CC3CC3)n(C)c12 | PADI2 (Homo sapiens, UniProt Q9Y2J8) | enzyme activity, cell lysate | HEK293 expressing PADI2 | 100 µM, with: calcium 2 mM | – | citrullination | no effect
N=C(N)N | Gdx-Clo G10I mutant | tryptophan fluorescence | – | concentration not given | – | binding | no binding
COc1ccc(C[C@@H]2NC(=O)CC3(CCCCC3)SSC[C@@H](C(=O)N3CCC[C@H]3C(=O)N[C@@H](CCCNC(=N)N)C(=O)NCC(N)=O)NC(=O)[C@H](CC(N)=O)NC(=O)[C@H](CCC(N)=O)NC(=O)[C@H](Cc3ccccc3)NC2=O)cc1 | AVPR1A (Homo sapiens, UniProt P37288) | binding, agonist, radioligand binding | – | – | – | Hill coefficient | 1.3
O=C(O)COP(=O)(O)O | TPI1 (Saccharomyces cerevisiae, UniProt P00942, Y208A) | enzyme activity, competitive inhibitor, GPDH/NADH-coupled | – | pH 4.9, 25 °C, ionic strength 0.1 NaCl, with: glyceraldehyde 3-phosphate substrate | baseline: mutant over wild type | Ki ratio | 67
Oc1ccc(/C=C/c2cc(O)cc(O)c2)cc1 | O-methyltransferase (Sorghum bicolor, UniProt A0A1B6PFV1, W279A) | isothermal titration calorimetry | – | apo protein | – | -T∆S | 4.12 kcal/mol
COc1ncccc1-c1cnn2ccc(N3CCN(C(=O)OC(C)C)CC3)nc12 | SIK1 | KINOMEscan binding | – | 1 µM | baseline: untreated control | remaining binding | 100%
Nc1ncnc2c1ncn2[C@@H]1O[C@H](COP(=O)(O)OP(=O)(O)NP(=O)(O)O)[C@@H](O)[C@H]1O | Cell cycle histidine kinase CckA, G318A; cytoplasmic region (Caulobacter vibrioides, UniProt Q9X688, G318A) | ITC | – | without c-di-GMP | – | ΔH | -4.87 ± 0.195 kcal/mol
C[C@@H](NC(=O)[C@@H](N)Cc1ccc(O)cc1)C(=O)NCC(=O)N(C)[C@@H](Cc1ccccc1)C(=O)NCCO | Oprm1 (Mus musculus, UniProt P42866) | agonist | mouse spinal cord membranes | 562 nM | baseline: basal binding | GTPγS binding | 0.58% and 1.92% and -1.89% and 3.13%
CN(CCOc1ccc(C[C@H](Nc2ccccc2C(=O)c2ccccc2)C(=O)O)cc1)c1ccccn1.O | PPARA (Homo sapiens, UniProt Q07869) | binding, frontal affinity chromatography-MS | – | 0.5 µM, equimolar ligand mixture | – | breakthrough time | 18.8 min
O=C(Nc1cccnn1)N1CCC(=Cc2cccc(Oc3ccc(C(F)(F)F)cn3)c2)CC1 | PTGER2 (Homo sapiens, UniProt P43116) | radioligand binding, inhibitor | – | 50 µM, human, with: [3H]prostaglandin E2 | – | inhibition | 35%
NCCCCNCCCN | speG (Escherichia coli, UniProt P0A951) | substrate, spectrophotometric kinetics | – | cooperative kinetics | – | Km | 590 ± 30.8 µM
CC[N+]1(C)CCN(c2cccc(C(F)(F)F)c2)CC1.[I-] | Nicotinic acetylcholine receptor alpha1/beta1/epsilon/delta | ion current, inhibitor, two-electrode voltage clamp | Xenopus oocytes | 30 µM, after co-application, unit not given, with: ACh 30 µM | baseline: ACh alone | ACh response | 0.516 ± 0.128
O=C(Nc1cnccc1Cl)N1CCN(Cc2ccc3c(c2)OC(F)(F)O3)CC1 | muscarinic receptor, rat | binding | – | 10 µM, with: [3H]oxotremorine M | – | inhibition | -7%
O=C(C1CCC(F)(F)CC1)N1CC(=O)N2CCc3ccccc3[C@@H]2C1 | TRPM channel TRPM_PZQ (Schistosoma mansoni, UniProt A0A5K4F0X5) | agonist | HEK293 cells transfected | – | baseline: (R)-praziquantel | fold change in EC50 | ~5 fold
CN(C(=O)n1cnc(-c2ccc[n+]([O-])c2)c1)C1CCCCC1 | CAMK4 (Homo sapiens, UniProt Q16566) | enzyme activity | – | 50 µM, with: autocamtide-2 | – | inhibition | 1%
CN1CCN(c2cc(-c3ccncc3)c(-c3ccc4ccccc4c3)nn2)CC1 | Alpha-1D adrenergic receptor, Δ2-79 (ADRA1D, Homo sapiens, UniProt P25100) | agonist, FLIPR | – | 12.5 µM | – | activation | 0%

For quick reference, copied from above:
Structure (SMILES) | target or system | assay | test system | conditions | scale | measurement | result
O=C(O)COP(=O)(O)O | TPI1 (Saccharomyces cerevisiae, UniProt P00942, Y208A) | enzyme activity, competitive inhibitor, GPDH/NADH-coupled | – | pH 4.9, 25 °C, ionic strength 0.1 NaCl, with: glyceraldehyde 3-phosphate substrate | baseline: mutant over wild type | Ki ratio | 67
Oc1ccc(/C=C/c2cc(O)cc(O)c2)cc1 | O-methyltransferase (Sorghum bicolor, UniProt A0A1B6PFV1, W279A) | isothermal titration calorimetry | – | apo protein | – | -T∆S | 4.12 kcal/mol
COc1ncccc1-c1cnn2ccc(N3CCN(C(=O)OC(C)C)CC3)nc12 | SIK1 | KINOMEscan binding | – | 1 µM | baseline: untreated control | remaining binding | 100%
